Measured values collected from several papers.
Protocols differ between the studies behind these lines. ± gives the spread as reported.
PLG: Plasminogen (PLG, Homo sapiens, UniProt P00747)
Sequence of UniProt P00747 (whole entry, looked up): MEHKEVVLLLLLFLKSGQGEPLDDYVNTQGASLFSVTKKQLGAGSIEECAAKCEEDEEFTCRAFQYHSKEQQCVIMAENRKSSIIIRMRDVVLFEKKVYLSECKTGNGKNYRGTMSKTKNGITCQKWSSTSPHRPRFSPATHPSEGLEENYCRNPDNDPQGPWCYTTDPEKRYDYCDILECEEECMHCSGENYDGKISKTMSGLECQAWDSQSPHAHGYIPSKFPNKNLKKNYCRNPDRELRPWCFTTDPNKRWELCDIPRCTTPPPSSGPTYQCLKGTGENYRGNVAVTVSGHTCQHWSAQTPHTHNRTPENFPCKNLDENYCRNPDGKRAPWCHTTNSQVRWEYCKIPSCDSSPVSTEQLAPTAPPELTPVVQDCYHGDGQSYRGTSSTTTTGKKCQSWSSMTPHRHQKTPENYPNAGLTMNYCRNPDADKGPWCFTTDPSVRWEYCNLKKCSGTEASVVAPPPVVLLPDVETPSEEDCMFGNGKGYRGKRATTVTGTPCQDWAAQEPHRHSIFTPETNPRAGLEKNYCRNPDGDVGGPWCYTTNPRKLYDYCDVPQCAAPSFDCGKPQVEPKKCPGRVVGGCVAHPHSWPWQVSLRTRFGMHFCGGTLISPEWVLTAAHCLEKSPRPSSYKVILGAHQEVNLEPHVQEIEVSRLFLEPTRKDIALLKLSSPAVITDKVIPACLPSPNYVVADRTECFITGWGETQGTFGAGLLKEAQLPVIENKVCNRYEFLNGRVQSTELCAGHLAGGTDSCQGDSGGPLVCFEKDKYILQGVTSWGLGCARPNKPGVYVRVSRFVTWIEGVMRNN
Sequence of UniProt P54764 (whole entry, looked up): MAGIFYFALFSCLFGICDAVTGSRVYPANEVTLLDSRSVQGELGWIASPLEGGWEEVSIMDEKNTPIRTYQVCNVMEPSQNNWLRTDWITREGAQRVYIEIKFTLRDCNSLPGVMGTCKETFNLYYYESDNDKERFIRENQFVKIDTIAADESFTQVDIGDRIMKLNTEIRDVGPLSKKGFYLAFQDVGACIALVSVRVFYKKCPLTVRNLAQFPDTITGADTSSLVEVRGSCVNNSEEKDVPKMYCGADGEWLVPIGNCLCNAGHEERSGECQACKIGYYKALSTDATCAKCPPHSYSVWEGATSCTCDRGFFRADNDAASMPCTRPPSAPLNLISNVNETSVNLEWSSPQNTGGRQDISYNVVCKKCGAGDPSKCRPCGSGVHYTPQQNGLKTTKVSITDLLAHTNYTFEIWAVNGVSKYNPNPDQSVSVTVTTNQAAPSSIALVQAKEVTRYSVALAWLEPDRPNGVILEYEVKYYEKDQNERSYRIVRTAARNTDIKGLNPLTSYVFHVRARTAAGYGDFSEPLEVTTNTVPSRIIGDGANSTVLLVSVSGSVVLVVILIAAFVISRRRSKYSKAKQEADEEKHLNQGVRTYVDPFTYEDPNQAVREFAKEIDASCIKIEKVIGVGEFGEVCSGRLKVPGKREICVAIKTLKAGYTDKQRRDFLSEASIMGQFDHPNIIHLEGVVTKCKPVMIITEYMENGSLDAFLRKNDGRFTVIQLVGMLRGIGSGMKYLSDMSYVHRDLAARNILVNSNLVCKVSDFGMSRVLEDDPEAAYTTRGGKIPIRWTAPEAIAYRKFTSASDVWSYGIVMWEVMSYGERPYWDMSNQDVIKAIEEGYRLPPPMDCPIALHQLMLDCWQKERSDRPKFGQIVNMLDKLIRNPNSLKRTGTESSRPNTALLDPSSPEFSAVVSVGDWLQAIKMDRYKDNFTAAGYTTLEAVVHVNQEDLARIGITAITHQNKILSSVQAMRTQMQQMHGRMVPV
Sequence of UniProt Q9ESK4 (whole entry, looked up): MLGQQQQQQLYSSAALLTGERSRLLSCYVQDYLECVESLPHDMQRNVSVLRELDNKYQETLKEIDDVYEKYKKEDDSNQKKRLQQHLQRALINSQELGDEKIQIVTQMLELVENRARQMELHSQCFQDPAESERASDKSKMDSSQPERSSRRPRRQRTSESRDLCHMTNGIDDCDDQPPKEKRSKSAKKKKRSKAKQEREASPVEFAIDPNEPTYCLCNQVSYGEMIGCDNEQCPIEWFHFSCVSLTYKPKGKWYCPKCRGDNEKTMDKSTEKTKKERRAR

`O=c1c(O)c(-c2ccc(O)c(O)c2)oc2cc(O)cc(O)c12` has an IC50 of 18.6 µM (DPPH scavenging).
The Ki of `COCCOCCOCCOCCOCCOCCOCCOCCOCCOCCOCCOCCOCCOCCOCCOCCOCCOCCOCCOCCOCCOCCOCCOCCOCCC(=O)NCc1ccc(C(=N)N)cc1` is reported as 521 µM (PLG; enzyme activity, inhibitor, absorbance; pH 7.4).
The IC50 of `APYCVYRASWSCGGKG (designed peptide; β-Ala1, β-Ala8, lauric acid on C-terminal Lys, disulfide cyclic)` is reported as 0.025 µM (EPHA4 20-547 (Homo sapiens, UniProt P54764); competition with ligand, competitor, ELISA; peptide; pH 7.5, NaCl 150 mM, with: ephrin-A5 0.05 nM).
`meglumine antimoniate` has an apoptotic cells of 30.1% (Leishmania major; annexin V/PI flow cytometry; promastigote; IC50).
With `O=C(CSc1nc2ccccc2cc1C=Nn1c(S)nnc1-c1ccccc1)Nc1ccc(Cl)cc1` the IC50 was 116 µM (DPPH scavenging).
With `CCCCc1oc2ccccc2c1C(=O)c1cc(I)c(OCC[N+](C)(C)C)c(I)c1` the IC50 was 105 ± 33 µM (Inhibitor of growth protein 2, PHD finger (Ing2, Mus musculus, UniProt Q9ESK4); fluorescence polarization).
The Ki of `N=C(N)c1ccc(CNC(=O)CCOCCOCCOCCOCCNC(=O)CN(CC(=O)NCCOCCOCCOCCOCCC(=O)NCc2ccc(C(=N)N)cc2)CC(=O)NCCOCCOCCOCCOCCC(=O)NCc2ccc(C(=N)N)cc2)cc1` is reported as 50.5 µM (PLG; enzyme activity, inhibitor, absorbance; pH 7.4).
`O=C(O)CCCCCCC(=O)OCn1cc(F)c(=O)[nH]c1=O`: “fold decrease in uptake” 48.2 fold (Caco-2 butyrate-induced; with: MCT1 inhibitor 2.5 mM; baseline: without inhibitor).
`CCCC(CCC)C(=O)O` — result for “seizure latency increase”: 67.3% (item: latency to stage 3; male mice, pilocarpine-induced seizures; oral, 20 mg/kg, dosed 30 min before pilocarpine, with: pilocarpine 300 mg/kg i.p.; baseline: pilocarpine vehicle group).
